Measurements pooled from the literature.
Parts stem from different laboratories: compare values within a part only.
UniProt Q9BZL6, sequence (whole entry, looked up): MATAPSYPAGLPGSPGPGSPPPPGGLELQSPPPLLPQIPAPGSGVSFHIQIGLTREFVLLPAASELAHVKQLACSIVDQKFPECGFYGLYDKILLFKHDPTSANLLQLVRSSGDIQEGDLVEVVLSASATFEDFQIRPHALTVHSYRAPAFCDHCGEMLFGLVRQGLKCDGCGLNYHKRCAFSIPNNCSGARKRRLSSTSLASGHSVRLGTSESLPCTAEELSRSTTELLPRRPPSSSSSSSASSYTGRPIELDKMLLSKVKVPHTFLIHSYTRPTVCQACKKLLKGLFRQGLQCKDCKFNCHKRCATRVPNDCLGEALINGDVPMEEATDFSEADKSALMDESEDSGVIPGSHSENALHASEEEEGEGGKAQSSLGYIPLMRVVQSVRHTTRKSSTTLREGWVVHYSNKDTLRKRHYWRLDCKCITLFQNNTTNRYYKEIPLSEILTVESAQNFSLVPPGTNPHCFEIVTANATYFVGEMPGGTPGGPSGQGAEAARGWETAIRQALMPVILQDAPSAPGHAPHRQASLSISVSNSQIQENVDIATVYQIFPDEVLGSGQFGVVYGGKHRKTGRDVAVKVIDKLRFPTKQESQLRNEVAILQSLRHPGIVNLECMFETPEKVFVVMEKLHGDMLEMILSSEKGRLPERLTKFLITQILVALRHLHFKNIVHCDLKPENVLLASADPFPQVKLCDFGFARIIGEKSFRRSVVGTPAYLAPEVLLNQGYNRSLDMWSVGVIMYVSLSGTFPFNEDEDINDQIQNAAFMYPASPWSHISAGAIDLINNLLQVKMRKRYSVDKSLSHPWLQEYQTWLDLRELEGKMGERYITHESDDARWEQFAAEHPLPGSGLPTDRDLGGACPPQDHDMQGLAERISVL
UniProt Q9Y2K2, sequence (whole entry, looked up): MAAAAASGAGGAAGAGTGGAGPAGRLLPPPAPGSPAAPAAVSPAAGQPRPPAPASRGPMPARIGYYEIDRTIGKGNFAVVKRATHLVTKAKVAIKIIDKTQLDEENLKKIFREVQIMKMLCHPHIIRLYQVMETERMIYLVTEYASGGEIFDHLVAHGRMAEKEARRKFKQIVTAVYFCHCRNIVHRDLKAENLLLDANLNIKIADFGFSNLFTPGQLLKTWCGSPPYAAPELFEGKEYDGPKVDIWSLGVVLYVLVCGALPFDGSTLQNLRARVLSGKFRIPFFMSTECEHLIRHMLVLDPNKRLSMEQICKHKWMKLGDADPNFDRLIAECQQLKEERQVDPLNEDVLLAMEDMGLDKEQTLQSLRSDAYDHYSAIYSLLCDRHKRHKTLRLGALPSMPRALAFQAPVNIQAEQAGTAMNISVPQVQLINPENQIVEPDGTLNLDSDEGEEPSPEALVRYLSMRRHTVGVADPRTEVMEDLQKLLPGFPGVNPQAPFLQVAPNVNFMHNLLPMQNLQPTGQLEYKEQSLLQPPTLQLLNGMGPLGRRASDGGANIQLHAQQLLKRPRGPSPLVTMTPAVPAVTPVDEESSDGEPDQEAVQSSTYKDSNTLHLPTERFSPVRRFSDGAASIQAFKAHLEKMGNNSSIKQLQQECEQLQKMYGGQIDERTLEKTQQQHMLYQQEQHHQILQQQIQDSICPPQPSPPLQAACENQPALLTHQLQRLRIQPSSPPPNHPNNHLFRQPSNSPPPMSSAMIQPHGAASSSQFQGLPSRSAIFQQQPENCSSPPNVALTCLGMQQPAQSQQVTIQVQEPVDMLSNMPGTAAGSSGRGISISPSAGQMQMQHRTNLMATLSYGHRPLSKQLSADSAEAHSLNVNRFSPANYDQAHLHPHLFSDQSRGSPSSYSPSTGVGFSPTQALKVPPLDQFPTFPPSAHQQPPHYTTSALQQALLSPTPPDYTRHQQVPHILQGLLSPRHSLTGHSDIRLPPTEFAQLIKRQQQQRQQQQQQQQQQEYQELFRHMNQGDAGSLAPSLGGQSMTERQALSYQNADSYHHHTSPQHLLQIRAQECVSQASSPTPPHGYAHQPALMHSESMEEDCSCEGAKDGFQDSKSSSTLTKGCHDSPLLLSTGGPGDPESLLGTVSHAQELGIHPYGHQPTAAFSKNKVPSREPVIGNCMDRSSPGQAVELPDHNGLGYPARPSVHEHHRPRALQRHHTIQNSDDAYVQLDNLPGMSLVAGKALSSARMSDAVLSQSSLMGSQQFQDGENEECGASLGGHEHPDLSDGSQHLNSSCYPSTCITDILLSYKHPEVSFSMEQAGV
UniProt P49336, sequence (whole entry, looked up): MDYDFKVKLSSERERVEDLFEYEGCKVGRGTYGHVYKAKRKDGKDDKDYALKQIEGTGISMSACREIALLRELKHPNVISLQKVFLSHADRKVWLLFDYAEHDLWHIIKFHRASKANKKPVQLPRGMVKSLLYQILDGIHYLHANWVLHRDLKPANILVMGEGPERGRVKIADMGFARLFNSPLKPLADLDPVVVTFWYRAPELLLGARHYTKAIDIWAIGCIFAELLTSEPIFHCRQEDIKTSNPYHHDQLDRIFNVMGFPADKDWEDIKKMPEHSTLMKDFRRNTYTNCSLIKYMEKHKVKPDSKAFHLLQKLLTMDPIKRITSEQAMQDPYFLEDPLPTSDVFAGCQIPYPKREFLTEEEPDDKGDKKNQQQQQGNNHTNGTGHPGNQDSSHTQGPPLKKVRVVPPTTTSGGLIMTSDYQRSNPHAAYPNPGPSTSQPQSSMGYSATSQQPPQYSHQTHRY
UniProt Q8TD08, sequence (whole entry, looked up): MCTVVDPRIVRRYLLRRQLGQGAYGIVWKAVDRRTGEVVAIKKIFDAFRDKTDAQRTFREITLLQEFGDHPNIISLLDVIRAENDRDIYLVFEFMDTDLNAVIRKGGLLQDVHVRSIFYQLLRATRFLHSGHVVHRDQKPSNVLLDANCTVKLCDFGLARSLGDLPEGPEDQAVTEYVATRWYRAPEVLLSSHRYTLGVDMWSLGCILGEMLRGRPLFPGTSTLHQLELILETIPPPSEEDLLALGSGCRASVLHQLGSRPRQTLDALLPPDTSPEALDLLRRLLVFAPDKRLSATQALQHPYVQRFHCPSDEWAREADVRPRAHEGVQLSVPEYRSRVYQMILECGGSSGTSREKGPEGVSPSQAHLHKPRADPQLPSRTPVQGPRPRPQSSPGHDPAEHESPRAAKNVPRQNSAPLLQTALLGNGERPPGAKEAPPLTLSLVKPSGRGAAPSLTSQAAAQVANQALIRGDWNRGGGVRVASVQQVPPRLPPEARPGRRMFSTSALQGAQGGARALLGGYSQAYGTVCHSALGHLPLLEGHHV
UniProt Q16539, sequence (whole entry, looked up): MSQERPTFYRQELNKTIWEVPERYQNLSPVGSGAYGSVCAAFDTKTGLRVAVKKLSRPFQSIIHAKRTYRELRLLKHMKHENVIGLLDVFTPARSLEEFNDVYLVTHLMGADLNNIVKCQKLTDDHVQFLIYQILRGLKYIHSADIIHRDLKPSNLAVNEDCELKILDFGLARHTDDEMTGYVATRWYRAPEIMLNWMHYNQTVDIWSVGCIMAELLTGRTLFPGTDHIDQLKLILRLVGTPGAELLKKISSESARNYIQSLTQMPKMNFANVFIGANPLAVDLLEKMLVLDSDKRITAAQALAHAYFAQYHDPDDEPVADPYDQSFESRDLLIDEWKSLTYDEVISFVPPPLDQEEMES
UniProt Q9BVS4, sequence (whole entry, looked up): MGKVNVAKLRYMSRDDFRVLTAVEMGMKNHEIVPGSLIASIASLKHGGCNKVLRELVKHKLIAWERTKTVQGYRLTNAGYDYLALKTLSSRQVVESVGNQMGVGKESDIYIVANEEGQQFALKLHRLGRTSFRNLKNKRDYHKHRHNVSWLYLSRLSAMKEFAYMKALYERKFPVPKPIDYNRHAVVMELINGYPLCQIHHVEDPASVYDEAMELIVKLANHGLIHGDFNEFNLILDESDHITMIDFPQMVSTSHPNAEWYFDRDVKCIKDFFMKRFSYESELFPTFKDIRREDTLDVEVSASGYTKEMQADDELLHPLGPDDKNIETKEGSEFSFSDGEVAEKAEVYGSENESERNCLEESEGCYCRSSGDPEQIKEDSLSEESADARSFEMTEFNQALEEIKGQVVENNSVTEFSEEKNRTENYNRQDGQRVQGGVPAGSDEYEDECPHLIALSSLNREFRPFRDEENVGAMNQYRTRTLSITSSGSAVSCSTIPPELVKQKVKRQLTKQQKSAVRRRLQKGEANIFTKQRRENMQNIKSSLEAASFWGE

Series 1 — organism: Sarcocystis neurona; observed: parasite growth; tested at: 10 µM; time: 96 h; setting: secondary screen
Compound	inhibition [%]
CNC(=C[N+](=O)[O-])NCCSCc1csc(CN(C)C)n1	-33.2
CCN1CCN(C(=O)N[C@@H](C(=O)N[C@@H]2C(=O)N3[C@@H]2SC(C)(C)[C@@H]3C(=O)O)c2ccccc2)C(=O)C1=O	-34.6
CC(COc1ccccc1)NC(C)C(O)c1ccc(O)cc1 (stereo not drawn)	-21.7
CCCCC(=O)O[C@]1(C(=O)CO)CC[C@H]2[C@@H]3CCC4=CC(=O)CC[C@]4(C)[C@H]3[C@@H](O)C[C@@]21C	-17.1
CC(C)[C@H](N)C(=O)OCCOCn1cnc2c(=O)[nH]c(N)nc21	-24.1
CN1[C@@H]2C[C@@H](OC(=O)[C@H](CO)c3ccccc3)C[C@H]1[C@@H]1O[C@@H]12	-21.7
COC(=O)CCc1ccc(OCC(O)CNC(C)C)cc1 (stereo not drawn)	-26.2
COc1ccccc1OCC(O)CN1CCN(CC(=O)Nc2c(C)cccc2C)CC1 (stereo not drawn)	-17.2

Series 2 — observed: enzyme activity; action: inhibitor; tested at: 0.5 µM; reference: control
Target: Fibroblast growth factor receptor 2 (FGFR2, Homo sapiens, UniProt P21802)
UniProt P21802, sequence (whole entry, looked up): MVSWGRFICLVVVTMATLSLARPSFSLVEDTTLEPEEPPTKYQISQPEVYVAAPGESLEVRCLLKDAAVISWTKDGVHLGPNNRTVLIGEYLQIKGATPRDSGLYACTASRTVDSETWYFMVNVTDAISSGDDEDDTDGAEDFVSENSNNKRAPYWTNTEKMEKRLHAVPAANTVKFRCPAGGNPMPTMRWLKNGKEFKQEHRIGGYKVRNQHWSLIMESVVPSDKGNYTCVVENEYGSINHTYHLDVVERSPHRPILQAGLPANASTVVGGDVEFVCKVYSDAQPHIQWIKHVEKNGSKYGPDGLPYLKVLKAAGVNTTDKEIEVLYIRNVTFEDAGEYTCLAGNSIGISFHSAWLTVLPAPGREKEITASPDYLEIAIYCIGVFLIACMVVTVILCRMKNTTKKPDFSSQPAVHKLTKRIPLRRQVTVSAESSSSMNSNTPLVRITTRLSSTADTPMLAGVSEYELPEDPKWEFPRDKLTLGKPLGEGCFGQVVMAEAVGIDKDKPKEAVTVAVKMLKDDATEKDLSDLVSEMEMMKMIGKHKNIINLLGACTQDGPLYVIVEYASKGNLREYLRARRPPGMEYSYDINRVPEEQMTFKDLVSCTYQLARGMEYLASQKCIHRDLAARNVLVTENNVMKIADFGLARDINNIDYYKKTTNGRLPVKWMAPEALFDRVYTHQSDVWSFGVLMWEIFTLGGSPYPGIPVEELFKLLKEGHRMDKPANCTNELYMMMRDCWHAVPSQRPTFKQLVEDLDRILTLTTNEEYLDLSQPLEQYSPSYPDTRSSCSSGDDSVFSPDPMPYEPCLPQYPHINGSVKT
SMILES	remaining activity [%]
CN(C)c1ccc(C=C2C(=O)Nc3ccccc32)cc1	98.2
COc1ccc(CNC(=O)Nc2ncc([N+](=O)[O-])s2)cc1	97.4
COc1ccc(C(=O)Nc2sc3c(c2C(N)=O)CCCC3)cc1OC	100
O=S(=O)(c1cccc2cnccc12)N1CCCNCC1	97.6
CC(C)[C@H](CO)Nc1nc(Nc2cc(N)cc(Cl)c2)c2ncn(C(C)C)c2n1	97.3
CNC(=O)c1cc(Oc2ccc(NC(=O)Nc3ccc(Cl)c(C(F)(F)F)c3)cc2)ccn1	72.7
Oc1ccc(-c2nc(-c3ccncc3)c(-c3ccc(F)cc3)[nH]2)cc1	103
COc1cc2nccc(Oc3ccc(NC(=S)NC(=O)c4ccccc4C)cc3)c2cc1OC	89
Cc1cccc(-c2[nH]c(C(C)(C)C)nc2-c2ccc3c(c2)OCO3)n1	105
Cn1c2ccccc2c2c3c(c4c5ccccc5n(CCC#N)c4c21)CNC3=O	79.8
O=C(O)c1ccc2c3c1cccc3c(=O)n1c3ccccc3nc21	100
COc1cc2ncnc(Nc3ccc(F)c(Cl)c3)c2cc1OCCCN1CCOCC1	98.7
COc1ccc(OC)c2c(=S)c3ccccc3[nH]c12	95.8
OCC(O)CCON=C1C(c2c(O)[nH]c3ccccc23)=Nc2ccccc21 (stereo not drawn)	76
CCOC(=O)c1c(C)[nH]c(/C=C2\C(=O)Nc3ccccc32)c1C	97.9

Series 3 — cell line: HaCaT; tested at: 100 µM; time: 36 h
SMILES	viability [%]
CC(=O)O[C@H]1CC[C@@]2(C)C(=CC[C@@H]3[C@@H]2CC[C@]2(C)C(c4cccnc4)=CC[C@@H]32)C1	7.5
CCC(C)(C)c1ccc(CC(C)CN2C[C@@H](C)O[C@@H](C)C2)cc1 (stereo partly drawn)	5.49
CC(C)(C)c1nc(-c2cccc(NS(=O)(=O)c3c(F)cccc3F)c2F)c(-c2ccnc(N)n2)s1	56.8
CN(C)CCN(Cc1ccccc1)c1ccccn1	82.6
CN(c1nccc(=O)[nH]1)C1CCN(c2nc3ccccc3n2Cc2ccc(F)cc2)CC1	47.5
CCCCCCCCCCCCCCCCOP(=O)([O-])OCC[N+](C)(C)C	32.4
Cn1cnc2c1c(=O)[nH]c(=O)n2C	95

Series 4 — observed: cell-free assay; method: competition with immobilised ligand; tested at: 1 µM
Structure (SMILES): NS(=O)(=O)c1cc(NC(=O)C2(c3ccccc3Cl)CC2)ccc1Oc1cccc(Cl)c1
target	remaining binding [%]
Non-receptor tyrosine-protein kinase TYK2, JH2 (TYK2, Homo sapiens, UniProt P29597)	80
Serine/threonine-protein kinase RIO2 (RIOK2, Homo sapiens, UniProt Q9BVS4)	89
Serine/threonine-protein kinase SIK3 (SIK3, Homo sapiens, UniProt Q9Y2K2)	87
Mitogen-activated protein kinase 14 (MAPK14, Homo sapiens, UniProt Q16539)	100
Serine/threonine-protein kinase D2 (PRKD2, Homo sapiens, UniProt Q9BZL6)	87
Mitogen-activated protein kinase 15 (MAPK15, Homo sapiens, UniProt Q8TD08)	65
Mitogen-activated protein kinase kinase kinase 10 (MAP3K10, Homo sapiens, UniProt Q02779)	100
Cyclin-dependent kinase 8 (CDK8, Homo sapiens, UniProt P49336)	91
Serine/threonine-protein kinase mTOR (MTOR, Homo sapiens, UniProt P42345)	100

For quick reference, copied from above (series 1):
Compound	inhibition [%]
COC(=O)CCc1ccc(OCC(O)CNC(C)C)cc1 (stereo not drawn)	-26.2
CN1[C@@H]2C[C@@H](OC(=O)[C@H](CO)c3ccccc3)C[C@H]1[C@@H]1O[C@@H]12	-21.7
CCCCC(=O)O[C@]1(C(=O)CO)CC[C@H]2[C@@H]3CCC4=CC(=O)CC[C@]4(C)[C@H]3[C@@H](O)C[C@@]21C	-17.1
CNC(=C[N+](=O)[O-])NCCSCc1csc(CN(C)C)n1	-33.2
COc1ccccc1OCC(O)CN1CCN(CC(=O)Nc2c(C)cccc2C)CC1 (stereo not drawn)	-17.2
CC(COc1ccccc1)NC(C)C(O)c1ccc(O)cc1 (stereo not drawn)	-21.7
